Measured values of several laboratories.
Parts stem from different laboratories: compare values within a part only.

Set 1 — method: protein-binding microarray; molecule type: double-stranded DNA, one strand shown; medium: in vitro; tested at: not given; reading: higher = stronger binding
Target: Protein C-ets-1 (ETS1, Homo sapiens, UniProt P14921, residues 1-441, K379A, full length assumed)
Notes: k-mer, scored over probes, only values ≥0.25
Construct (chain): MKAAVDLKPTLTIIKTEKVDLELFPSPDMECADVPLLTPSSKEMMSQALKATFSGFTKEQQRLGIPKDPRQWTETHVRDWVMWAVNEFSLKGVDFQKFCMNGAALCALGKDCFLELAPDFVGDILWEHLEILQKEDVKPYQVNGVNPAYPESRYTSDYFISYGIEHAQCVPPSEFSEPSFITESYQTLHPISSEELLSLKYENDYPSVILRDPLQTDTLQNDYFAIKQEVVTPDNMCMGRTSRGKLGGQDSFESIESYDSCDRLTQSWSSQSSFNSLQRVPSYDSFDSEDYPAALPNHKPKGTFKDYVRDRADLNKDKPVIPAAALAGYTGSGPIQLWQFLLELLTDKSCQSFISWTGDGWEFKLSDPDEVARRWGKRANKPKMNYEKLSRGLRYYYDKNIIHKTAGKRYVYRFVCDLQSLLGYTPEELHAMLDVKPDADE
For `ACGCCGGG`, the E-score was 0.287.
With `TCCGGACA` the E-score was 0.252.
`AAACCCCG` has an E-score of 0.268.
For `AGTCCCGG`, the E-score was 0.355.
For `CCCGCCCC`, the E-score was 0.458.
The E-score of `CGACGGCA` is reported as 0.253.
`CGGATATA` has an E-score of 0.347.
`ACGGTAAT` has an E-score of 0.303.
`GTGACGAA` gave an E-score of 0.258.
With `CCGGTATC` the E-score was 0.402.

Set 2 — method: RNA Bind-n-Seq; molecule type: RNA; medium: in vitro; tested at: 1 µM; notes: whole 134-nt RNA, ends assumed; added: 150 mM KCl; relative to: input library; reading: higher = stronger binding
Target: Ras GTPase-activating protein-binding protein 1, C-terminal RGG region (G3BP1, Homo sapiens, UniProt Q13283)
Sequence of UniProt Q13283 (whole entry, looked up): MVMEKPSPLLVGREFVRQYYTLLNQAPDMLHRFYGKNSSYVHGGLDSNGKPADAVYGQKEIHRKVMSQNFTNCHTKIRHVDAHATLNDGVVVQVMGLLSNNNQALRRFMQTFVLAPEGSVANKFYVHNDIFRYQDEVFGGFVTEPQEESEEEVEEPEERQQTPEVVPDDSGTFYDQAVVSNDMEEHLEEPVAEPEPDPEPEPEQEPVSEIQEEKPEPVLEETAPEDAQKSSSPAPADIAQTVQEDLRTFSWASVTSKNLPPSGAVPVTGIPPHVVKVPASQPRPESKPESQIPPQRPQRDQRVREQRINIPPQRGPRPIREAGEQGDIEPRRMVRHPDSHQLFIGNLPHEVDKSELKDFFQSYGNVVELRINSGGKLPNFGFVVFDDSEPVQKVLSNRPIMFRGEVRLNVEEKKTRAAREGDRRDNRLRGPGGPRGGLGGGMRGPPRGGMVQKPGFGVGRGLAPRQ
`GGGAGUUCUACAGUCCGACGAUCGCAGGAAGUAAAAACAAAUGGAAAUGCUUCGGAUAGUGGCAGGGAUGGGGGUUGCUAAGGAAAGGGUGGGAUGGGAGUGGGUAAAGAGUUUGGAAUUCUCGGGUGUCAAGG` gave a log2 enrichment of 1.2.
For `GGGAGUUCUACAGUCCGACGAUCAAGUCCUGUGCUACACAUCGUAUGUACCGAAUCGGUUUGGUUUUUGGUUUUUUUGGAAAGUAUUAUGUUACGCCGUUCGGAUCUGCACUUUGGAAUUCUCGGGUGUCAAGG`, the log2 enrichment was -1.77.
For `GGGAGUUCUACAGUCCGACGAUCAAGUCCUGUGCUACACAUCGUAUGUACCGAAUCGGGAAAGGGUUUUUUUGGGAGGGAAAGUAUUAUGUUACGCCGUUCGGAUCUGCACUUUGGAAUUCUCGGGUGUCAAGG`, the log2 enrichment was 0.637.
The log2 enrichment of `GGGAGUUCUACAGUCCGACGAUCUCCUCAAGUCCUGUGCUACACAUCGUAUGUACCGAAUCGGCGGGCGGGGCGGAAAGUAUUAUGUUACGCCGUUCGGAUCUGCACUUCCAGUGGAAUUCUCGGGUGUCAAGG` is reported as -0.543.
For `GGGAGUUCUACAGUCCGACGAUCACCAUGCAGGUGGGCAUCUUUGGGAAGUGGGGCAAGGGGGGGAUAGGGAGGGGGGUAACACUUUGGGAACAGGUGGUAAAAGGUCGUUUCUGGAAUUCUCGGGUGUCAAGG`, the log2 enrichment was -0.753.
The log2 enrichment of `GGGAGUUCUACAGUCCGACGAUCGUCCUGUGCUACACAUCGUAUGUACCGAAUCGGGUUUUUUGGUUUUUUGGGUUUUUUGGAAAGUAUUAUGUUACGCCGUUCGGAUCUGCAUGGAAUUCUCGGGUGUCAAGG` is reported as -1.58.
`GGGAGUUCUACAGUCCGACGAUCCAAGUCCUGUGCUACACAUCGUAUGUACCGAAUCGGCCCGGGGCCCGGGCCCGGGGAAAGUAUUAUGUUACGCCGUUCGGAUCUGCACUUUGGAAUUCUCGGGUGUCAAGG` has a log2 enrichment of -1.86.
With `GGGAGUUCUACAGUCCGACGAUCCCUCAAGUCCUGUGCUACACAUCGUAUGUACCGAAUCGGUUGGUUGGGUUGGGAAAGUAUUAUGUUACGCCGUUCGGAUCUGCACUUCCAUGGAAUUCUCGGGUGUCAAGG` the log2 enrichment was -0.956.
For `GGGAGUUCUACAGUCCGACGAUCGCAGGAAGUAAAAACAAAUGGAAAUGCUUCGGACAGUGGCAGGGGUGGGGGUUGCUAAGGAAAGGGUGGGAUGGGAGUGGGUAAAGAGUUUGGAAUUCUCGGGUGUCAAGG`, the log2 enrichment was 1.27.
The log2 enrichment of `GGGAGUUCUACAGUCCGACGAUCGCAGGAAGUAAAAACAAAUAAAAAUGCUUCGGAUAGUGGCAGGGGUGGGGGUUGCUAAGGAAAGGGUGGGAUGGGAGUGGGUAAAGAGUUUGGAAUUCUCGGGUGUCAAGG` is reported as 1.59.
For `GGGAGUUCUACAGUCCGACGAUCUUUCAAAGCCAAAGGGCCUUGUGACGCCCCUCUUGCCCACCUCCCUCCACACCGUGUCCUCCCCUAUAUGACAAUCAAUGUGACCUCUCUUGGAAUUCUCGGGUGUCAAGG`, the log2 enrichment was 0.267.

Set 3 — method: protein binding microarray; molecule type: double-stranded DNA, one strand shown; medium: in vitro; tested at: not given; relative to: not given; reading: higher = stronger binding
Target: Histone acetyltransferase KAT6A, both winged helices, GST fusion (KAT6A, Homo sapiens, UniProt Q92794, residues 1-181)
Notes: 8-mer, flanks averaged, mean of 2 arrays, mostly near background
Residues (chain): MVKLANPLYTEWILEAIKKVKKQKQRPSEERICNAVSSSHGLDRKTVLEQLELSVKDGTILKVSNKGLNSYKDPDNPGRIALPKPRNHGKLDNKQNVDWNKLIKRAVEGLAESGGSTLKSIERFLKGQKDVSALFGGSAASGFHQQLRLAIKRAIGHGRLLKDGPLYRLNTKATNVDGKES
`CACGGACG` gave an E-score of 0.236.
`AGCAGATC` gave an E-score of -0.252.
The E-score of `AGGCGCCT` is reported as 0.226.
`ACTTGTAC` gave an E-score of -0.0561.
With `CTACCCCC` the E-score was -0.235.
With `GTCCCAGA` the E-score was -0.0704.
`CGAGGACA` has an E-score of -0.0416.
`AGGGATAT` has an E-score of -0.23.
For `ACGTCCCG`, the E-score was 0.153.

Other studies, line by line
`PhoQ, residues 284 288 289 292 302 303 SQSLSM` gave a fold induction of 19.2 (PhoP, residues 12 14 15 18 19 TQAIL (Escherichia coli, UniProt P23836); Sort-seq, item: YFP reporter; E. coli; PhoQ-PhoP variant library, added: 10 µM Mg2+; relative to: high Mg2+ state, higher = stronger signaling).
